Results of several laboratories.
Protocols differ between the studies behind these lines. Values joined by “and” are separate records of one study, mostly repeats; a detail may differ. ± marks the error that the study gave.
dncV: dncV (Vibrio cholerae, UniProt Q9KVG7)

CC(C)[C@H](N)C(=O)N[C@@H](Cc1ccc(O)cc1)C(=O)N[C@@H](CCCCN)C(=O)N[C@H](C(=O)N[C@@H](CCCCN)C(=O)N[C@H](C(=O)N[C@@H](CCCCN)C(=O)N[C@H](C(=O)N[C@@H](CCCCN)C(=O)N[C@H](C(=O)N[C@@H](CCCCN)C(=O)N[C@H](C(=O)N[C@@H](CCCCN)C(=O)N[C@H](C(=O)N[C@@H](CCCCN)C(=O)N[C@H](C(=O)N[C@@H](CCCCN)C(=O)N[C@H](C(=O)O)[C@@H](C)O)C(C)C)[C@@H](C)O)C(C)C)[C@@H](C)O)C(C)C)[C@@H](C)O)C(C)C  Rmax (binding, SPR Langmuir fit; rVλ6Wil fibrils; 300 nM, pH 7.4): 63 RU
CCN(Cc1ccccc1)C(=O)CCc1nc(CN2CCN(C(=O)Cc3ccc(OC)c(OC)c3)CC2)no1  activation V1/2 (KCNQ4 (Homo sapiens, UniProt P56696); potassium current, whole-cell patch clamp; CHO, stable; 30 nM): -29.3 ± 1.64 mV
NCCCC[C@H](NC(=O)CNC(=O)CNC(=O)[C@H](CCCCN)NC(=O)CNC(=O)CNC(=O)CNC(=O)[C@H](CCCCN)NC(=O)CNC(=O)CNC(=O)[C@H](CCCCN)NC(=O)CNC(=O)CNC(=O)CNC(=O)[C@H](CCCCN)NC(=O)CNC(=O)CNC(=O)[C@H](CCCCN)NC(=O)CNC(=O)CNC(=O)CNC(=O)[C@H](CCCCN)NC(=O)CNC(=O)CNC(=O)[C@H](CCCCN)NC(=O)[C@H](CO)NC(=O)[C@H](Cc1ccc(O)cc1)NC(=O)CNC(=O)CNC(=O)CN)C(=O)NCC(=O)O  Rmax (binding, SPR two-state model; rVλ6Wil fibrils; 300 nM): 19 RU
Nc1nc2c([C@@H]3O[C@@H]4COP(=O)(O)O[C@H]5[C@@H](O)[C@H](c6scc7c(=O)[nH]c(N)nc67)O[C@@H]5COP(=O)(O)O[C@H]4[C@H]3O)scc2c(=O)[nH]1  cyclization rate constant k2 (dncV; substrate, HPLC; 500 µM, 37 °C): 0.000232 ± 5e-06 s⁻¹
COc1ccc(C2(C(=O)Nc3ccc(C)c(-c4cccc(C(=O)O)c4)c3)CC2)cc1  Emax (CFTR (Homo sapiens, UniProt P13569, del508-508); chloride conductance, corrector; CFBE41o- F508del; reference: 3 µM VX-809): 54% and 54.1%
CCCCCn1cc(C(=O)c2cccc3ccccc23)c2ccccc21  Emax (CNR1 (Homo sapiens, UniProt P21554, L193I); Gαi1 engagement, agonist, BRET; reference: reference agonist at wild-type CB1): 91.8 ± 2.1%
CC(=O)N[C@@H](CCC(=O)O)C(=O)N[C@@H](CCC(N)=O)C(=O)N[C@H](C(=O)N[C@@H](CCC(=O)O)C(=O)N[C@@H](CC(C)C)C(=O)N[C@@H](CCC(=O)O)C(=O)N[C@@H](Cc1ccccc1)C(=O)N[C@@H](CC(=O)O)C(=O)O)C(C)C  deuterium uptake (Beta sliding clamp (Escherichia coli, UniProt P0A988); HDX-MS; 50 µM, 10 s, pH pD 7.4, 37 °C, target 5 µM): 84 ± 2 Da
C[C@@H](NC(=O)[C@@H](CCC(N)=O)NC(=O)[C@@H](C)NC(=O)[C@@H](CCCCN)NC(=O)[C@@H](CCC(N)=O)NC(=O)[C@@H](C)NC(=O)[C@@H](CCCCN)NC(=O)[C@@H](CCC(N)=O)NC(=O)[C@@H](C)NC(=O)[C@@H](CCC(N)=O)NC(=O)[C@@H](CCCCN)NC(=O)[C@@H](C)NC(=O)[C@@H](CCC(N)=O)NC(=O)[C@@H](CCCCN)NC(=O)[C@@H](C)NC(=O)[C@@H](CCC(N)=O)NC(=O)[C@@H](C)NC(=O)[C@@H](CCCCN)NC(=O)[C@@H](CCC(N)=O)NC(=O)[C@@H](C)NC(=O)[C@@H](CCCCN)NC(=O)[C@@H](CO)NC(=O)[C@@H](Cc1ccc(O)cc1)NC(=O)CNC(=O)CNC(=O)CN)C(=O)N[C@H](CCCCN)C(=O)N[C@H](CCC(N)=O)C(=O)N[C@H](C)C(=O)N[C@H](CCCCN)C(=O)N[C@H](CCC(N)=O)C(=O)O  Rmax (binding, SPR two-state model; rVλ6Wil fibrils; 300 nM): 63.4 RU
CC(C)(C)c1cc(C(C)(C)C)c(-n2cc(-c3cnc4ccccc4c3O)nn2)cc1O  EC50 (CFTR (Homo sapiens, UniProt P13569, G551D); short-circuit current, potentiator; CFBE41o- G551D; with: forskolin 10 µM): inactive
C[C@H](NC(=O)[C@H](CCC(N)=O)NC(=O)[C@H](CCCCN)NC(=O)[C@H](C)NC(=O)[C@@H]1CCCN1C(=O)[C@H](C)NC(=O)[C@H](CCCCN)NC(=O)[C@H](CCC(N)=O)NC(=O)[C@H](C)NC(=O)[C@H](CCCCN)NC(=O)[C@H](CCC(N)=O)NC(=O)[C@@H]1CCCN1C(=O)[C@H](CCC(N)=O)NC(=O)[C@H](CCCCN)NC(=O)[C@H](C)NC(=O)[C@H](CCC(N)=O)NC(=O)[C@H](CCCCN)NC(=O)[C@H](C)NC(=O)[C@@H]1CCCN1C(=O)[C@H](C)NC(=O)[C@H](CCCCN)NC(=O)[C@H](CCC(N)=O)NC(=O)[C@H](C)NC(=O)[C@H](CCCCN)NC(=O)[C@H](CO)NC(=O)[C@H](Cc1ccc(O)cc1)NC(=O)CNC(=O)CNC(=O)CN)C(=O)N[C@@H](CCCCN)C(=O)N[C@@H](CCC(N)=O)C(=O)O  Rmax (binding, SPR Langmuir fit; rVλ6Wil fibrils; 300 nM, pH 7.4): 17.6 RU
CCCCCn1cc(C(=O)c2cccc3c2CC(C)(C)C3)c2ccccc21  Emax (CNR1 (Homo sapiens, UniProt P21554, I267L); Gαi1 engagement, agonist, BRET; reference: reference agonist at wild-type CB1): 67.5 ± 4.1%
Nc1nc2c([C@@H]3O[C@@H]4COP(=O)(O)O[C@H]5[C@@H](O)[C@H](c6snc7c(=O)[nH]c(N)nc67)O[C@@H]5COP(=O)(O)O[C@H]4[C@H]3O)snc2c(=O)[nH]1  rate constant k1 (dncV; first phosphodiester formation, substrate, HPLC; 500 µM, 37 °C): 1.26 ± 0.07 M⁻¹ s⁻¹

Some of these lines once more:
Nc1nc2c([C@@H]3O[C@@H]4COP(=O)(O)O[C@H]5[C@@H](O)[C@H](c6snc7c(=O)[nH]c(N)nc67)O[C@@H]5COP(=O)(O)O[C@H]4[C@H]3O)snc2c(=O)[nH]1  rate constant k1 (dncV; first phosphodiester formation, substrate, HPLC; 500 µM, 37 °C): 1.26 ± 0.07 M⁻¹ s⁻¹
CCN(Cc1ccccc1)C(=O)CCc1nc(CN2CCN(C(=O)Cc3ccc(OC)c(OC)c3)CC2)no1  activation V1/2 (KCNQ4 (Homo sapiens, UniProt P56696); potassium current, whole-cell patch clamp; CHO, stable; 30 nM): -29.3 ± 1.64 mV
